Experimental data gathered from unrelated publications.
Numbers after ± are the reported error.

SMILES = COc1ccc(-n2c(SCCN(C)C)nnc2[C@H](Cc2ccccc2)NC(=O)Cc2c(C)[nH]c3ccccc23)cc1; organism = HIV-2; test = HIV-2-induced cytopathicity, MTT; test system = MT-4, wild type; endpoint = EC50; value = > 22.9 µM
SMILES = CCCCCCCCCCCCCC(=O)N[C@H]1C(=O)N[C@@H](CN)C(=O)N[C@@H](CO)C(=O)N[C@@H](Cc2ccc(O)cc2)C(=O)O[C@H]1C; organism = Staphylococcus aureus; test = time-kill curve; test system = SH1000; conditions = at least 2 x MIC, 30 °C; endpoint = time to bactericidal effect; value = < 10 min
SMILES = CC[C@H](C)[C@H](NC(=O)[C@H](CCC(N)=O)NC(=O)[C@H](Cc1ccccc1)NC(=O)[C@H](CO)NC(=O)[C@H](CS)NC(=O)[C@H](Cc1ccccc1)NC(=O)[C@H](C)NC(=O)[C@H](CCCCN)NC(=O)[C@H](CCCNC(=N)N)NC(=O)[C@H](CCCCN)NC(=O)[C@H](CC(C)C)NC(=O)[C@H](Cc1c[nH]cn1)NC(=O)[C@@H]1CCCN1C(=O)[C@H](CCC(N)=O)NC(=O)[C@H](CC(=O)O)NC(=O)[C@H](Cc1c[nH]cn1)NC(=O)[C@H](Cc1ccccc1)NC(=O)[C@@H]1CCCN1C(=O)[C@H](CS)NC(=O)[C@H](CC(N)=O)NC(=O)[C@H](CC(=O)O)NC(=O)[C@H](CC(C)C)NC(=O)[C@H](CC(N)=O)NC(=O)[C@@H]1CCCN1C(=O)[C@H](CCC(N)=O)NC(=O)[C@@H](NC(=O)[C@H](CCCCN)NC(=O)[C@@H](NC(=O)[C@H](CS)NC(=O)[C@@H](NC(=O)[C@@H](NC(=O)[C@H](CCCNC(=N)N)NC(=O)CN)[C@@H](C)O)[C@@H](C)O)[C@@H](C)O)[C@@H](C)O)C(=O)N[C@@H](Cc1ccc(O)cc1)C(=O)N[C@@H](C)C(=O)N[C@H](C(=O)N1CCC[C@H]1C(=O)N[C@@H](Cc1c[nH]c2ccccc12)C(=O)N[C@@H](CCC(N)=O)C(=O)NCC(=O)N[C@H](C(=O)N[C@@H](CCSC)C(=O)N[C@H](C(=O)N[C@@H](CC(C)C)C(=O)N[C@@H](CO)C(=O)N[C@@H](CCCCN)C(=O)N[C@@H](CO)C(=O)N[C@H](C(=O)N[C@@H](CS)C(=O)N[C@@H](CCC(N)=O)C(=O)N[C@@H](CC(=O)O)C(=O)N[C@@H](C)C(=O)O)[C@@H](C)O)[C@@H](C)O)[C@@H](C)O)C(C)C; organism = HIV-2; test = viral entry; test system = GHOST-GPR15, ROD10; endpoint = maximal inhibition; value = ≤ 80%
SMILES = COc1ccccc1C(=O)O[C@H]1[C@H](C)[C@H](O)[C@H](C)[C@@H](O)[C@@H](C)/C=C/C=C(/C)C(=O)NC2=C3NC4(CCN(CC(C)C)CC4)N=C3c3c(c(O)c(C)c4c3C(=O)[C@@](C)(O/C=C/[C@H](OC)[C@H]1C)O4)C2=O; organism = Mycobacteroides abscessus; test system = ATCC 19977; how to read = baseline: wild type over arr deletion; endpoint = MIC ratio; value = 1
SMILES = COc1cccc(CSc2nc3cc4ccccc4cc3c(=O)n2Cc2ccccc2)c1; organism = coxsackievirus B4; test = plaque; test system = BGM; conditions = concentration not given, non-toxic dose; endpoint = virus titre reduction; value = 26.7 ± 2%
SMILES = OC[C@H]1O[C@@H](n2cnc3c(SCc4ccccc4)nc(Cl)nc32)C[C@@H]1O; organism = Helicobacter pylori; test system = 26695; conditions = 200 µM, partially precipitated; endpoint = growth inhibition; value = inhibited
SMILES = COc1ccccc1-c1n[nH]c2nc(N[C@H]3CC[C@H](NS(=O)(=O)CC(C)C)CC3)ncc12; organism = Leishmania donovani; test system = HRN CYP450-null mouse; conditions = dose not given; endpoint = parasite reduction; value = > 95%
SMILES = COc1ccc(-c2nc(-c3ccccc3OC)[nH]c2-c2ccc(OC)cc2)cc1; organism = Schistosoma mansoni; test = egg laying; test system = worm couples; endpoint = lowest concentration reducing egg number; value = 5 µM
SMILES = COc1ccc(-n2c(SCc3ccncc3)nnc2[C@H](Cc2ccccc2)NC(=O)Cc2c(C)[nH]c3ccccc23)cc1; organism = HIV-2; test system = MT-4, wild type; how to read = baseline: CC50 over EC50; endpoint = selectivity index; value = 6
SMILES = O=C1c2ccccc2C(=O)N1CCCSc1nc2cc3ccccc3cc2c(=O)n1Cc1ccccc1; organism = coxsackievirus B4; test = plaque; test system = BGM; conditions = concentration not given, non-toxic dose; endpoint = virus titre reduction; value = 0%
SMILES = COc1c(C)c(O)c(C)c(O)c1C(=O)C1C(C=C(C)C=O)C=C(C)CC1c1ccccc1 (stereo not drawn); organism = human respiratory syncytial virus; test = viral replication, CPE reduction; test system = HEp-2, A2; endpoint = IC50; value = 50 µM
SMILES = CCn1c(SCc2cccc(OC)c2)nc2cc3ccccc3cc2c1=O; organism = coxsackievirus B4; test = plaque; test system = BGM; conditions = concentration not given, non-toxic dose; endpoint = virus titre reduction; value = 0%
SMILES = CO[C@H]1/C=C/O[C@@]2(C)Oc3c(C)c(O)c4c(c3C2=O)C2=NC3(CCN(CC(C)C)CC3)NC2=C(NC(=O)/C(C)=C\C=C\[C@H](C)[C@H](O)[C@@H](C)[C@@H](O)[C@@H](C)[C@H](OC(=O)c2cccc(F)c2)[C@@H]1C)C4=O; organism = Mycobacteroides abscessus; test system = ATCC 19977; how to read = baseline: wild type over arr deletion; endpoint = MIC ratio; value = 0.6
SMILES = CN[C@@H]1[C@H](O)[C@H](NC)[C@H]2O[C@]3(O)[C@H](O[C@@H]2[C@H]1O)O[C@H](C)C[C@@]3(O)CNCCc1ccc(F)cc1; organism = Mycobacteroides abscessus; test = RNA sequencing; test system = ATCC 19977; conditions = 1 µg/mL, 3 h, unit not given; how to read = baseline: untreated; endpoint = differentially expressed genes; value = 1880
SMILES = O=C(Nc1ccc2c(c1)CN(c1ccc(Cl)cc1)C2=O)N1CC[C@H](O)C1; organism = Trypanosoma brucei rhodesiense; test = cell growth, resazurin; test system = STIB-900; conditions = concentration not given, 3 days; endpoint = growth inhibition; value = inactive
SMILES = O=C(Nc1ccccc1Nc1ccccc1)c1cccnc1F; organism = Valsa mali; test = mycelial growth, mycelial growth rate method; conditions = 50 mg/L; endpoint = inhibition; value = 6.82%
SMILES = Nc1ccn(C[C@@H](CO)OCP(=O)(O)OCCCS(=O)(=O)CCCCCCCCCCC2CCC2)c(=O)n1; organism = Murid betaherpesvirus 1; test = qPCR; test system = MEF, Smith; how to read = baseline: CC50 over EC50; endpoint = selectivity index; value = > 667
SMILES = CC(C)(C)NCC(SS(=O)(=O)O)c1ccccc1 (stereo not drawn); organism = Schistosoma mansoni; test system = mice; conditions = oral, 200 mg/kg once daily for 4 days, from 7 days post infection; endpoint = male worm burden reduction; value = 80%
SMILES = Cc1cc(N2CCC(C#N)(C3(C)CC3)C2=O)cc(C(=O)NCc2cc(F)cc(-c3cnn(C)c3)c2)n1 (racemic); organism = Plasmodium falciparum; test system = Pf3D70087/N9, humanized SCID mouse; conditions = oral, 50 mg/kg, day 7 postinfection, 4-day treatment once daily; how to read = baseline: untreated mice; endpoint = parasitemia reduction; value = 99.8%
SMILES = CN[C@@H]1[C@H](O)[C@H](NC)[C@H]2O[C@]3(O)[C@H](O[C@@H]2[C@H]1O)O[C@H](C)C[C@@]3(O)CNCCc1ccccc1; organism = Mycobacteroides abscessus; test = LC-MS/MS, refers to: intracellular compound; test system = ATCC 19977; conditions = 100 µM, 30 min; how to read = baseline: compound over spectinomycin; endpoint = intracellular accumulation ratio; value = 12 fold
SMILES = CCCOC(=O)N1c2cc(CNC)ccc2[C@H](NC(=O)C(=O)Nc2ccc(Cl)c(F)c2)[C@H]1CNC(=N)N; organism = HIV-1 JR-FL pseudovirus; test = viral infection; test system = Cf2Th-CD4/CCR5 cells; how to read = baseline: BNM-III-170; endpoint = potency fold increase; value = 24 fold
SMILES = CN[C@H](CC(C)C)C(=O)N[C@H]1C(=O)N[C@@H](CC(N)=O)C(=O)N[C@H]2C(=O)N[C@H]3C(=O)N[C@H](C(=O)N[C@H](C(=O)O)c4cc(O)cc(O)c4-c4cc3ccc4O)[C@H](O)c3ccc(c(Cl)c3)Oc3cc2cc(c3O[C@@H]2O[C@H](CO)[C@@H](O)[C@H](O)[C@H]2O[C@H]2C[C@](C)(NCc3ccc(C(=O)OCCCCCCN(Cc4ccccn4)Cc4ccccn4)cc3)[C@H](O)[C@H](C)O2)Oc2ccc(cc2Cl)[C@H]1O; organism = Bacillus subtilis; test = protein synthesis, refers to: FabL; test system = 168; conditions = concentration not given, 10 min, at peak effective concentration; how to read = baseline: untreated; endpoint = regulation factor; value = 41.9 ± 3.5
SMILES = CCCCCCCCCC(=O)N[C@@H](Cc1c[nH]c2ccccc12)C(=O)N[C@H](CC(N)=O)C(=O)N[C@@H](CC(=O)O)C(=O)N[C@@H]1C(=O)NCC(=O)N[C@@H](CCCNC(=O)OC2/C=C/CCCCC2)C(=O)N[C@@H](CC(=O)O)C(=O)N[C@H](C)C(=O)N[C@@H](CC(=O)O)C(=O)NCC(=O)N[C@H](CO)C(=O)N[C@@H]([C@H](C)CC(=O)O)C(=O)N[C@@H](CC(=O)c2ccccc2N)C(=O)O[C@@H]1C (stereo partly drawn); organism = Staphylococcus aureus; test system = MSSA; conditions = concentration not given; how to read = baseline: UG gel over TAG gel; endpoint = activity improvement; value = 71%
SMILES = Cc1ccc(S(=O)(=O)Nn2c3c(cc(-c4nc5ccccc5s4)c2=O)CCCC3)cc1; organism = Human mastadenovirus B; test = viral replication, plaque reduction; test system = HEp-2 cells, type 7; conditions = non-toxic concentration; endpoint = reduction; value = 30%
SMILES = CCOC(=O)C1=C(C)NC2=C(C(=O)CC(C)(C)C2)C1c1ccc(OCC(=O)NN=Cc2cc(Br)c(O)c(Br)c2)cc1OCC(=O)NN=Cc1cc(Br)c(O)c(Br)c1 (stereo not drawn); organism = Priestia megaterium; test system = DSM 32; conditions = concentration not given, 24 h, 37 °C; endpoint = inhibition zone diameter; value = 10.6 ± 0.1 mm
SMILES = CCCCCCCCOC(=O)/C=C/c1ccc(O)c(O)c1; organism = Trypanosoma brucei rhodesiense; test system = STIB900; conditions = concentration not given, bloodstream trypomastigotes, active if IC50 < 10 µM; endpoint = antitrypanosomal activity; value = active
SMILES = COc1ccc(S(=O)(=O)NCc2c[nH]nc2-c2cccs2)cc1; organism = Plasmodium falciparum; test = parasite reduction ratio; test system = 3D7; conditions = 10 × IC50; endpoint = lag time before killing; value = 24 h
